Earlier results as cited in several papers.
Numbered parts are unrelated; values within a part may stem from several laboratories. “And” joins repeats or separate records; there may be more than shown. ± marks the error that the study gave.
Sequence of UniProt P22002 (whole entry, looked up): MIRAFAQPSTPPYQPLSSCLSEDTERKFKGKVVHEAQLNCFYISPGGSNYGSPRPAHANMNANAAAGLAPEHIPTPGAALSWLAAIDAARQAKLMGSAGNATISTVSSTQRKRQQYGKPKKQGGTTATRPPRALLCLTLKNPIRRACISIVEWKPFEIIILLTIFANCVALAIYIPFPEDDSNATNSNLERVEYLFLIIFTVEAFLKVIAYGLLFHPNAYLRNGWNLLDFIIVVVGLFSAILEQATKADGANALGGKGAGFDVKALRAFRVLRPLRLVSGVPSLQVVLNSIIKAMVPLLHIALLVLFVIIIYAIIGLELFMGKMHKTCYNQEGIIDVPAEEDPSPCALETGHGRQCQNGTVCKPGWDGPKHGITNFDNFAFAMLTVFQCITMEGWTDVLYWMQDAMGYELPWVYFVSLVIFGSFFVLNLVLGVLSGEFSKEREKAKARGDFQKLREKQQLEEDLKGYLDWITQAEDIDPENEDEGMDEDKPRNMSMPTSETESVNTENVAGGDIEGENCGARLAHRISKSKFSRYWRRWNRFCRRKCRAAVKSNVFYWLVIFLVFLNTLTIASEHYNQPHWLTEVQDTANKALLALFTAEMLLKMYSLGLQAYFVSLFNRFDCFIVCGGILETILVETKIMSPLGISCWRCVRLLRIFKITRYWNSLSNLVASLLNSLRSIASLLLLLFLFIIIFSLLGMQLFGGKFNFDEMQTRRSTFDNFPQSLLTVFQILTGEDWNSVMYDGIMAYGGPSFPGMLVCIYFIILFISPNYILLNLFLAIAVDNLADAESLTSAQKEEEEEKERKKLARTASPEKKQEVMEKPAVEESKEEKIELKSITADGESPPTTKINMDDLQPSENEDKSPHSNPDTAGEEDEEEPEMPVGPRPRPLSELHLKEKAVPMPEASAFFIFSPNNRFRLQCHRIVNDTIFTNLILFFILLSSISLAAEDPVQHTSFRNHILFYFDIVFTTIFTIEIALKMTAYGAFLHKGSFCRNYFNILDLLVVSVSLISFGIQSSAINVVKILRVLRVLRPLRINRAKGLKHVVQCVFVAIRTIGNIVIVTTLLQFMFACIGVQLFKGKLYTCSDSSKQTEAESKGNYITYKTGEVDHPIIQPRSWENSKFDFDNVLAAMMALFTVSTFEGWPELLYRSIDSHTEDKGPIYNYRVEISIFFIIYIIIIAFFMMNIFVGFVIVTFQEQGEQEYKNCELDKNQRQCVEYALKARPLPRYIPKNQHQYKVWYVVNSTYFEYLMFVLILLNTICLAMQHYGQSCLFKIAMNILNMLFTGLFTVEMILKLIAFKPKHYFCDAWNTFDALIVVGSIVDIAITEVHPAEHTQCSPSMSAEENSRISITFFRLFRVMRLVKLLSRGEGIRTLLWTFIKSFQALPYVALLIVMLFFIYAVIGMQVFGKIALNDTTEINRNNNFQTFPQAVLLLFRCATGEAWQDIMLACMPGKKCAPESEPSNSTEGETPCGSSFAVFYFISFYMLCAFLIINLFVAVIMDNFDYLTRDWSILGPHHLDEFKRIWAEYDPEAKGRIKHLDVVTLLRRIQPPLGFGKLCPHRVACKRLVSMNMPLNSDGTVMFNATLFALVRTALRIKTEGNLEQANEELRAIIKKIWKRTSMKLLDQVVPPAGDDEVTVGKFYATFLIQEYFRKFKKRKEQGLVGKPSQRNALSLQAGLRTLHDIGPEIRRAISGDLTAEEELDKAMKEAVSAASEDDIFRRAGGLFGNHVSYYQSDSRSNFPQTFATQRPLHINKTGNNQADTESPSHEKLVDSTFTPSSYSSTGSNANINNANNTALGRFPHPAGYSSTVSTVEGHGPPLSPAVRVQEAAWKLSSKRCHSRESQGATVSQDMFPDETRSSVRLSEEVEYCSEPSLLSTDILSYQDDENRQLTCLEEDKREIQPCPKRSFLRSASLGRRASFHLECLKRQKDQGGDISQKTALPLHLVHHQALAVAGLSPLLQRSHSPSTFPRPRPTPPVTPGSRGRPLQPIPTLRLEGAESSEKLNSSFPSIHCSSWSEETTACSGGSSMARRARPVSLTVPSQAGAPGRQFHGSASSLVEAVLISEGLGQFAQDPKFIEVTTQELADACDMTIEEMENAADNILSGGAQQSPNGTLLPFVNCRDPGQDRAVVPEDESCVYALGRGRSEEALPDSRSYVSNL
Sequence of UniProt O14976 (whole entry, looked up): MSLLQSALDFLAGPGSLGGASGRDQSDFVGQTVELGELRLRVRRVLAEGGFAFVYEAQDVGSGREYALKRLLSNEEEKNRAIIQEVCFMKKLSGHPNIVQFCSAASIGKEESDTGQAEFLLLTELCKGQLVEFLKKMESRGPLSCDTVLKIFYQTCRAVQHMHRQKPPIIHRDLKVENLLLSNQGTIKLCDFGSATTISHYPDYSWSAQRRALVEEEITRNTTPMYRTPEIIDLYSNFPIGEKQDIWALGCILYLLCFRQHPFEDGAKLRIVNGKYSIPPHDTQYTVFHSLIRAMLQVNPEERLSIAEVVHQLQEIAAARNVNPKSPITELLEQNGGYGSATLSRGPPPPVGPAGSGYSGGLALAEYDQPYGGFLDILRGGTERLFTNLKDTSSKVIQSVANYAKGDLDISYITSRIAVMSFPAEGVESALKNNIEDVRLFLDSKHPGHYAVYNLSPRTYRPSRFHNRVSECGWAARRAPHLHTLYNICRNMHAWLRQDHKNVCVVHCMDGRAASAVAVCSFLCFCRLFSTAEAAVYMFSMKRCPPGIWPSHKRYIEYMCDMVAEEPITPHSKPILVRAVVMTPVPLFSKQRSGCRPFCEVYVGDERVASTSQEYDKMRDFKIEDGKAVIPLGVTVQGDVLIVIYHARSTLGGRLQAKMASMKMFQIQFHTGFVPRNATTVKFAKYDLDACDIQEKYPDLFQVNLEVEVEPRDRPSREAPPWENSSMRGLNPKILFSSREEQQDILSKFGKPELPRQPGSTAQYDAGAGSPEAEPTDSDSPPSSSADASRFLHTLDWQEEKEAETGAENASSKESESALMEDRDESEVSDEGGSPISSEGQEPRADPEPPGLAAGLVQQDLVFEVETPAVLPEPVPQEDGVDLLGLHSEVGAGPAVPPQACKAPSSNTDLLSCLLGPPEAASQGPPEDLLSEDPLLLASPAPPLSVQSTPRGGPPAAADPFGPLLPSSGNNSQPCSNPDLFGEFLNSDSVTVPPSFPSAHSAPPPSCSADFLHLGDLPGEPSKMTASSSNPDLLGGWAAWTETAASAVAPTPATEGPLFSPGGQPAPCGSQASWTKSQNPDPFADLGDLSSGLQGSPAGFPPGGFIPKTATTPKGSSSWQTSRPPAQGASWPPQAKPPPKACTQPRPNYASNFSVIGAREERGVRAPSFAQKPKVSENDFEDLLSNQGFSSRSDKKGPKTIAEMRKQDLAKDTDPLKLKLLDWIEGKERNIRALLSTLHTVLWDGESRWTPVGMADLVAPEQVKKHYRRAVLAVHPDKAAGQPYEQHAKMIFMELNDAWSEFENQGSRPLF
Sequence of UniProt Q01959 (whole entry, looked up): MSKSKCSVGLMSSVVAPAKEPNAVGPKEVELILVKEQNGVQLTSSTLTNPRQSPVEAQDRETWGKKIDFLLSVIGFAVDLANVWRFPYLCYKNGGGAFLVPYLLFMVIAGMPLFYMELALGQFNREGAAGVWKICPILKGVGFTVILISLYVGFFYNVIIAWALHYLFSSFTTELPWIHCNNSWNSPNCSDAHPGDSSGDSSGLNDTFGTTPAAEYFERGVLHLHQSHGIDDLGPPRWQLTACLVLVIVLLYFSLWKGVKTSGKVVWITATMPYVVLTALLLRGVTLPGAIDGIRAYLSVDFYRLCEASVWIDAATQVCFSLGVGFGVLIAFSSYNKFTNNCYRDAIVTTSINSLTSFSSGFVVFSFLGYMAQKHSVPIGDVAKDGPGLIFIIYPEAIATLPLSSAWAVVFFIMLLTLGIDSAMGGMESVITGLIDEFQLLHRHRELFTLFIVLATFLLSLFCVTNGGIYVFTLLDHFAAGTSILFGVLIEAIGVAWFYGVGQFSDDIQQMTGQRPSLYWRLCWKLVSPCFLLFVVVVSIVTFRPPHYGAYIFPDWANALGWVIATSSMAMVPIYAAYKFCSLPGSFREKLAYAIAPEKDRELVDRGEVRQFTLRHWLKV
Sequence of UniProt Q2M2I8 (whole entry, looked up): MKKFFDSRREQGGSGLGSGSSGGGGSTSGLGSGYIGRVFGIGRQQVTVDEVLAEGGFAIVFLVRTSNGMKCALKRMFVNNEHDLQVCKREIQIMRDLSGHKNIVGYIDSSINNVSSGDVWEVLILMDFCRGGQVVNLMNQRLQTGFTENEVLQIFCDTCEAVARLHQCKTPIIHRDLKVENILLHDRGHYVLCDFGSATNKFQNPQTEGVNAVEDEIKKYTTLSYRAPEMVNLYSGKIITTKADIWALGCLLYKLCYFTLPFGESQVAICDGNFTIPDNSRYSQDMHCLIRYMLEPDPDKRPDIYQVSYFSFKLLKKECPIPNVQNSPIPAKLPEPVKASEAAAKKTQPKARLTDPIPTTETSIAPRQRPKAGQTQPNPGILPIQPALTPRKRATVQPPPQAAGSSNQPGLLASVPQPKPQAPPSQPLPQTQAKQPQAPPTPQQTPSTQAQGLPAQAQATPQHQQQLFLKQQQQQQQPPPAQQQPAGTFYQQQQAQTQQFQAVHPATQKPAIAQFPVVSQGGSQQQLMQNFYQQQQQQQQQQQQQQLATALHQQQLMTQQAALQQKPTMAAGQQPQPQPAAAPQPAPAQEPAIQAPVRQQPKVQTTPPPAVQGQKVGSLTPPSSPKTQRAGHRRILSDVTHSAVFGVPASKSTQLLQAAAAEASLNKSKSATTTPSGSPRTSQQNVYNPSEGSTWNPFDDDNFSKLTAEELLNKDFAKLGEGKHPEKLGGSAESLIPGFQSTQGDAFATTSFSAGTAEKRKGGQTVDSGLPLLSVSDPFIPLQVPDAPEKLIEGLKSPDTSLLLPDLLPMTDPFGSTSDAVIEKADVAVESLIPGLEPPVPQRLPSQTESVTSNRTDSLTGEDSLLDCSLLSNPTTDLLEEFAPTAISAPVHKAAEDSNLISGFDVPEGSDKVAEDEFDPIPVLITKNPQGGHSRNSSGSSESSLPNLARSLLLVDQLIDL

Series 1
Target: HLA class I histocompatibility antigen, A alpha chain, allele A*80:01 (Homo sapiens, UniProt P04439)
Effect on: peptide-MHC binding
Molecule type: peptide
| Molecule | IC50 |
| --- | --- |
| ATRSHRPLI | > 20000 nM |
| FHIVNQESL | > 20000 nM |
| ISLQEVFTM | > 20000 nM |
| TMRTPLFPW | > 20000 nM |
| HAAVRRNAF | > 20000 nM |
| VHYGQGWLY | 1 nM |
| MELSLRAIQ | > 20000 nM |
| EGFDPRALI | > 20000 nM |
| VSFDQNLDY | 19 nM |
| DMYFCHFYK | > 20000 nM |
| ARLSSPIVL | > 20000 nM |
| NTDAFSREY | 568 nM |
| KLHCTERSL | > 20000 nM |
| RAWDPQPAM | > 20000 nM |
| HQIWLALRY | 8 nM |
| PIPVGDIYK | 20000 nM |
| SLFTEQAFY | 8.86 nM |
| LIDGRTSFY | 14.9 nM |
| ILLARLFLY | 3.63 nM |
| LSDNLSLVY | 169 nM |
| WQDGGWQSV | > 20000 nM |
| GAWCYDYTV | > 20000 nM |
| AFDLSFFLK | 20000 nM |
| SQYDPKELL | > 20000 nM |
| LPLKMLNIPSINVH | > 20000 nM |

Further values, each from its own experiment
| Compound | tested on | test | test system | setting | scale | quantity | result |
| --- | --- | --- | --- | --- | --- | --- | --- |
| CC1(C)CCC(c2ccc(Cl)cc2)=C(CN2CCN(c3ccc(C(=O)NS(=O)(=O)c4ccc(N[C@H](CCN5CCOCC5)CSc5ccccc5)c(S(=O)(=O)C(F)(F)F)c4)cc3)CC2)C1 | – | – | human | once daily | – | maximum tolerated dose | 325 mg |
| CC[C@H](C)C(=O)O[C@H]1C[C@H](O)C=C2C=C[C@H](C)[C@H](CC[C@@H](O)C[C@@H](O)CC(=O)O)[C@H]21 | OATP1B1 | – | – | – | – | share of hepatic uptake clearance | 96% |
| COc1ncccc1-c1cnn2ccc(N3CCN(C(=O)OC(C)C)CC3)nc12 | Cyclin-G-associated kinase (GAK, Homo sapiens, UniProt O14976) | – | – | literature value | – | IC50 | 320 nM |
| O=C(CS)Nc1ccc(Cl)c(Cl)c1 | HepG2 | – | – | – | – | IC50 | > 100000 nM |
| C[C@@H]1C[C@H]2[C@@H]3CCC4=CC(=O)C=C[C@]4(C)[C@@]3(F)[C@@H](O)C[C@]2(C)[C@@]1(O)C(=O)CO | – | – | – | – | – | logD | 1.9 |
| C[C@]12CC[C@H]3[C@@H](CCC4=CC(=O)CC[C@@]43C)[C@@H]1CC[C@@H]2O | aromatase (CYP19A1, human placenta) | substrate | – | – | – | Km | 0.21 µM |
| CC(=O)O[C@@]12CO[C@@H]1C[C@H](O)[C@@]1(C)C(=O)[C@H](OC(=O)C3CC3)C3=C(C)[C@@H](OC(=O)[C@H](O)[C@H](C=C(C)C)NC(=O)OC(C)(C)C)C[C@@](O)([C@@H](OC(=O)c4ccccc4)[C@H]21)C3(C)C | MCF7/PTX, paclitaxel-resistant | cell viability | – | – | – | IC50 | 80.5 ± 7.62 nM |
| Nc1ccn([C@@H]2O[C@H](COP(=O)(O)OP(=O)(O)OP(O)(O)=S)[C@@H](O)[C@H]2O)c(=O)n1 | Spo0J, Bacillus subtilis | binding | – | – | – | Kd | 10300 ± 1200 nM |
| Fc1ccc(C(OCCN2CCN(CCCc3ccccc3)CC2)c2ccc(F)cc2)cc1 | Sodium-dependent dopamine transporter (SLC6A3, Homo sapiens, UniProt Q01959) | – | – | – | – | Hill coefficient | 0.9 |
| NCCc1ccc(Oc2ccc(O)cc2)c(I)c1 | rat TAAR1 | agonist | – | – | – | EC50 | 14 nM |
| CCOC(=O)C1=C(C)NC(C)=C(C(=O)OC)C1c1cccc([N+](=O)[O-])c1 (centres unmarked) | Voltage-dependent L-type calcium channel subunit alpha-1C (Cacna1c, Rattus norvegicus, UniProt P22002) | – | – | – | – | Hill coefficient | 0.9 |
| COC(=O)[C@@H]1C[C@H](OC(C)=O)C(=O)[C@H]2[C@@]1(C)CC[C@H]1C(=O)O[C@H](c3ccoc3)C[C@]21C | kappa opioid receptor | – | – | – | – | Ki | 31.6 nM and 33 nM and 17.5 nM and 23.5 nM |
| CNC(=O)c1c(N(C)N=O)ncn1C | Salmonella typhimurium | – | TA98, TA100, TA102, TA1535, TA1537 | up to 1690 nmol per plate, with and without S9 | – | Ames test result | negative |
| N#CC(=Cc1ccc(O)cc1)C(=O)O | band 3 anion transport protein (human) | inorganic anion transport, inhibitor | human red blood cells | – | – | Ki | 130000 nM |
| CN(CC(C)(C)C)N=O | – | – | male F344 rats | dose not given | – | oesophageal tumour incidence | 100% |
| COc1ccc(C[C@@H](C)[C@@H](C)Cc2ccc(OC)c(OC)c2)cc1OC | – | – | human, advanced refractory solid tumours | intravenous, 24 h, weekly continuous infusion | – | MTD | 2200 mg |
| CC12C(=O)OC(=O)C1(C)C1CCC2O1 (centres unmarked) | protein phosphatase 6 catalytic subunit | enzyme activity, inhibitor | – | – | – | IC50 | 200 to 8000 nM |
| COC(=O)C[C@@H]1N=C(c2ccc(Cl)cc2)c2c(sc(C)c2C)-n2c(C)nnc21 | Bromodomain-containing protein 4, BD1 (BRD4, Homo sapiens, UniProt O60885) | binding | – | – | – | Kd | 36.1 nM |
| c1cc2ccc3cccc4ccc(c1)c2c34 | – | substrate | human liver microsomes | – | – | Vmax | 0.088 nmol/min/mg |
| O=c1ccc2ncc(=O)n3c2n1C[C@H]3CN1CCC(NCc2cc3c(cn2)OCCC3)CC1 | – | – | – | oral, dose not given | relative to: dose | fraction of dose absorbed | ~50% |
| CO[C@@H](C)Cn1c(=O)n(C)c2cnc3ccc(-c4cncc(C(C)(C)O)c4)cc3c21 | – | – | human mesothelioma patients | together with: cisplatin and pemetrexed | – | maximum tolerated dose | 100 mg twice daily |
| COc1cccc2c1C(=O)c1c(O)c3c(c(O)c1C2=O)C[C@@](O)(C(=O)CO)C[C@@H]3O[C@H]1C[C@H](N)[C@H](O)[C@H](C)O1 | HCT-116 p53-/- | cell growth | – | – | relative to: p53-/- over wild type | sensitivity ratio | ~2 fold |
| Cc1cccc2c1ccc1cc(C(C)C)ccc12 | – | substrate | human liver microsomes | – | – | Vmax | 0.006 nmol/min/mg |
| COc1ccc(-c2cnc3[nH]cc(C#Cc4cccnc4)c3c2)cc1OC | AP2-associated protein kinase 1 (AAK1, Homo sapiens, UniProt Q2M2I8) | – | – | – | – | IC50 | 4 nM |
| NC1CCCCC1N.O=C([O-])C(=O)[O-].[Pt+2] (centres unmarked) | – | item: total platinum | mouse, plasma | intravenous, 8.34 mg Pt/kg | – | Vd | 0.167 L/kg |

For quick reference, copied from above (series 1):
| Molecule | IC50 |
| --- | --- |
| PIPVGDIYK | 20000 nM |
| SLFTEQAFY | 8.86 nM |
| LIDGRTSFY | 14.9 nM |
| ILLARLFLY | 3.63 nM |
| LSDNLSLVY | 169 nM |
| WQDGGWQSV | > 20000 nM |
